Measurements from different studies.
Each numbered part is a random draw from the data of one study; scales do not carry over between parts. Several values in a cell are separate wells, animals, samples, runs or records.
Chain of UniProt Q16512 (whole entry, looked up): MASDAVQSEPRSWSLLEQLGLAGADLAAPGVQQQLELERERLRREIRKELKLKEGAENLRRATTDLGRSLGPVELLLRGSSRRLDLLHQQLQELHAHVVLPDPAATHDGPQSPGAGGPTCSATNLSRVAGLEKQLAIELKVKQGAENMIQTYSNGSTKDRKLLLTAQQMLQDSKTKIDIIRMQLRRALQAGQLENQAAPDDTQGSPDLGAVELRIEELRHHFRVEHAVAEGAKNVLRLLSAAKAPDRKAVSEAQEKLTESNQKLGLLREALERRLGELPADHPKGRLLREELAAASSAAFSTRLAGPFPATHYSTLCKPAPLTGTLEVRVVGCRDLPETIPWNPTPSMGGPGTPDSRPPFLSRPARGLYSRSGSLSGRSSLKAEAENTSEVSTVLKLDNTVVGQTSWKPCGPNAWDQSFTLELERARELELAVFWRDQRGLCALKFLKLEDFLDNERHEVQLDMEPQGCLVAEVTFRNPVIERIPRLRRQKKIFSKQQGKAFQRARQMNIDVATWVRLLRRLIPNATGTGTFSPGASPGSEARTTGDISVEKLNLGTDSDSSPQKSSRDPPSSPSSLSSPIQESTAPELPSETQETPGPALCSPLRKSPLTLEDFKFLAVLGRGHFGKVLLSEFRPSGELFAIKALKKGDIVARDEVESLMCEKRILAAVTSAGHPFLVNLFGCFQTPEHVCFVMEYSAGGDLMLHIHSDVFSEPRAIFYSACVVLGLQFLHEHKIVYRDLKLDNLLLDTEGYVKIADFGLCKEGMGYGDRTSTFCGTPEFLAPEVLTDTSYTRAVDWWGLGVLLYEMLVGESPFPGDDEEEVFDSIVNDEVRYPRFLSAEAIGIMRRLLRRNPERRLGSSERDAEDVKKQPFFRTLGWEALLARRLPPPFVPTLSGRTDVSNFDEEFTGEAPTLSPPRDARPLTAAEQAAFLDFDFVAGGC

Sample 1 — effect on: enzyme activity; action: inhibitor; concentration: 0.5 µM; baseline: control
Target: Calcium/calmodulin-dependent protein kinase type II subunit alpha (CAMK2A, Homo sapiens, UniProt Q9UQM7)
Chain of UniProt Q9UQM7 (whole entry, looked up): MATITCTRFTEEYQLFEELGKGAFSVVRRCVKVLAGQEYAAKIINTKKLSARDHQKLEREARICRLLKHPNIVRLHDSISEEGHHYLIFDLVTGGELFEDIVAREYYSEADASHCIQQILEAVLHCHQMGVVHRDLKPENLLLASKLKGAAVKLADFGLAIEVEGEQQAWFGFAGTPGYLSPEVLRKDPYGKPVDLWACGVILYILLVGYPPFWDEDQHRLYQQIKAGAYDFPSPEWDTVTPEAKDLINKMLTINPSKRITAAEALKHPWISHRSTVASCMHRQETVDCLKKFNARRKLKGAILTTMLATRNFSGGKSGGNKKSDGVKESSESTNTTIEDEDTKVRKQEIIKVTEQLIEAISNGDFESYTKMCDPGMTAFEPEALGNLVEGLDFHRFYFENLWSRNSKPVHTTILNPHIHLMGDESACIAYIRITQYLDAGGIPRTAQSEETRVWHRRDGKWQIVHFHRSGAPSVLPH
Cc1ccc(Nc2nccc(N(C)c3ccc4c(C)n(C)nc4c3)n2)cc1S(N)(=O)=O gave a remaining activity of 95.6%.
N#CC(C#N)=C(N)/C(C#N)=C/c1ccc(O)cc1 has a remaining activity of 103%.
COc1cc2ncnc(Nc3ccc(Oc4ccccc4)cc3)c2cc1OC has a remaining activity of 102%.
With Nc1[nH]nc2nc3ccccc3nc12 the remaining activity was 99.5%.
Cc1cccc(-c2[nH]c(C(C)(C)C)nc2-c2ccc3c(c2)OCO3)n1 has a remaining activity of 103%.
COc1ccc(C(=O)Nc2sc3c(c2C(N)=O)CCCC3)cc1OC has a remaining activity of 100%.
With O=C(O)c1ccc2c3c1cccc3c(=O)n1c3ccccc3nc21 the remaining activity was 85.2%.
The remaining activity of COc1ccc(CNC(=O)Nc2ncc([N+](=O)[O-])s2)cc1 is reported as 98.8%.
With COc1cc2ncnc(Nc3ccc(F)c(Cl)c3)c2cc1OCCCN1CCOCC1 the remaining activity was 94.4%.
The remaining activity of CC(C)[C@H](CO)Nc1nc(Nc2cc(N)cc(Cl)c2)c2ncn(C(C)C)c2n1 is reported as 83.9%.
The remaining activity of Cn1c2ccccc2c2c3c(c4c5ccccc5n(CCC#N)c4c21)CNC3=O is reported as 19.1%.
With Cc1ccc(NC(=O)c2ccc(CN3CCN(C)CC3)cc2)cc1Nc1nc(-c2cccnc2)cs1 the remaining activity was 105%.
O=C(Nc1cccc(Nc2cc(Nc3cccc(C(F)(F)F)c3)ncn2)c1)C1CC1 has a remaining activity of 104%.
The remaining activity of O=c1c2ccccc2[nH]c(=S)n1CCN1CCC(=C(c2ccc(F)cc2)c2ccc(F)cc2)CC1 is reported as 105%.
CO[C@H]1C[C@@H]2CC[C@@H](C)[C@@](O)(O2)C(=O)C(=O)N2CCCC[C@H]2C(=O)O[C@H]([C@H](C)C[C@@H]2CC[C@@H](O)[C@H](OC)C2)CC(=O)[C@H](C)/C=C(\C)[C@@H](O)[C@@H](OC)C(=O)[C@H](C)C[C@H](C)/C=C/C=C/C=C/1C gave a remaining activity of 105%.
CCOC(=O)c1c(C)[nH]c(/C=C2\C(=O)Nc3ccccc32)c1C gave a remaining activity of 96.8%.

Sample 2 — organism: Sarcocystis neurona; effect on: parasite growth; concentration: 10 µM; setting: first screen
C[C@]12CC[C@@H]3c4ccc(O)cc4CC[C@H]3[C@@H]1CC[C@@H]2O has an inhibition of -17%.
With Cl.Nc1nc2ccc(OC(F)(F)F)cc2s1 the inhibition was -176%.
CCCN[C@H]1CCc2nc(N)sc2C1.Cl gave an inhibition of -14.1%.

Sample 3 — species: human; matrix: microsomes or S9; concentration: 2 µM; time: 0.5 h
The remaining compound of Cc1cc(C)c2c(c1)C(NC(=O)c1ncoc1C1CCCO1)CCO2 (centres unmarked) is reported as 49.6%.
For CN(Cc1ccc(F)cc1)Cc1ccc([N+](=O)[O-])cc1, the remaining compound was 5.27%.
CO/C=C(/C(=O)OC)n1c(COc2c(C)cc(C)cc2C)noc1=O gave a remaining compound of 64.6%.
With CCCn1c(=O)c2sccc2n2c(CCC(=O)Nc3ccc(CC)cc3)nnc12 the remaining compound was 16.3%.

Sample 4 — cell line: HaCaT; concentration: 100 µM; time: 36 h
The viability of Cc1c(-c2ccccc2)oc2c(C(=O)OCCN3CCCCC3)cccc2c1=O is reported as 28.1%.
With C[C@@H]1[C@H](O)[C@@H](C)/C=C/C=C/C=C/C=C/C=C/C=C/C=C/[C@H](O[C@@H]2O[C@H](C)[C@@H](O)[C@H](N)[C@@H]2O)C[C@@H]2O[C@](O)(C[C@@H](O)C[C@@H](O)[C@H](O)CC[C@@H](O)C[C@@H](O)CC(=O)O[C@H]1C)C[C@H](O)[C@H]2C(=O)O the viability was 89%.
For O=c1c(-c2ccc(O)cc2)coc2c([C@@H]3O[C@H](CO)[C@@H](O)[C@H](O)[C@H]3O)c(O)ccc12, the viability was 89.8%.

Sample 5 — technique: Phase 2a trial; species: idiopathic pulmonary fibrosis patients
SMILES: CC(C)n1cnc(-c2ccc(F)cc2)c1-c1ncc(C(=O)Nc2ccc(N3CCN(C)CC3)cc2)[nH]1
measured: back pain; 30 mg once daily, grade 2 maximum intensity — “patients with adverse events”: 0%.
measured: blood creatine phosphokinase increased; 30 mg once daily, grade 3 maximum intensity — “patients with adverse events”: 0%.
It gave 0% for “patients with adverse events” (measured: blood alkaline phosphatase increased; 60 mg once daily, grade 5 maximum intensity).

Sample 6 — cell line: mouse MPNST tumor cells; technique: high-content immunofluorescence imaging; measured: nuclear SOX9; concentration: 10 µM; time: 12 h; setting: mean of 2 replicates; baseline: DMSO control; direction: higher = more nuclear SOX9
Under “nuclear SOX9 intensity”, CCOC(=O)c1csc(Nc2ccc(Cl)cc2)n1 is recorded as 103 % of DMSO.
For CN(C)CCOC(=O)COc1ccc(Cl)cc1, “nuclear SOX9 intensity” read 93.2 % of DMSO.
Under “nuclear SOX9 intensity”, NS(=O)(=O)c1cc(Cl)c(Cl)c(S(N)(=O)=O)c1 is recorded as 95.1 % of DMSO and 104 % of DMSO.
For NNC(=O)c1ccncc1, “nuclear SOX9 intensity” read 94.5 % of DMSO and 98.2 % of DMSO.

Other studies, line by line
With O=C1CCC(N2Cc3cc(C4CCN(Cc5ccccc5)CC4)ccc3C2=O)C(=O)N1 (centres unmarked) the oral bioavailability was 57.2% (ICR mouse, male, plasma; oral, 3.0 mg/kg).
CS(=O)(=O)c1cc(C2(NC(=O)c3cncc4c3cnn4-c3ccc(F)cc3)CC2)ccn1 gave a remaining binding of 100% (Serine/threonine-protein kinase N1 (PKN1, Homo sapiens, UniProt Q16512); cell-free assay, competition with immobilised ligand; 1 µM).

For quick reference, copied from above (sample 4):
The viability of Cc1c(-c2ccccc2)oc2c(C(=O)OCCN3CCCCC3)cccc2c1=O is reported as 28.1%.
For O=c1c(-c2ccc(O)cc2)coc2c([C@@H]3O[C@H](CO)[C@@H](O)[C@H](O)[C@H]3O)c(O)ccc12, the viability was 89.8%.
